Results from different studies.
Lines come from different studies, so protocols differ. Numbers after ± are the reported error.
Broad substrate specificity ATP-binding cassette transporter ABCG2: Broad substrate specificity ATP-binding cassette transporter ABCG2 (Mus musculus, UniProt Q7TMS5)
Chain of UniProt Q7TMS5 (whole entry, looked up): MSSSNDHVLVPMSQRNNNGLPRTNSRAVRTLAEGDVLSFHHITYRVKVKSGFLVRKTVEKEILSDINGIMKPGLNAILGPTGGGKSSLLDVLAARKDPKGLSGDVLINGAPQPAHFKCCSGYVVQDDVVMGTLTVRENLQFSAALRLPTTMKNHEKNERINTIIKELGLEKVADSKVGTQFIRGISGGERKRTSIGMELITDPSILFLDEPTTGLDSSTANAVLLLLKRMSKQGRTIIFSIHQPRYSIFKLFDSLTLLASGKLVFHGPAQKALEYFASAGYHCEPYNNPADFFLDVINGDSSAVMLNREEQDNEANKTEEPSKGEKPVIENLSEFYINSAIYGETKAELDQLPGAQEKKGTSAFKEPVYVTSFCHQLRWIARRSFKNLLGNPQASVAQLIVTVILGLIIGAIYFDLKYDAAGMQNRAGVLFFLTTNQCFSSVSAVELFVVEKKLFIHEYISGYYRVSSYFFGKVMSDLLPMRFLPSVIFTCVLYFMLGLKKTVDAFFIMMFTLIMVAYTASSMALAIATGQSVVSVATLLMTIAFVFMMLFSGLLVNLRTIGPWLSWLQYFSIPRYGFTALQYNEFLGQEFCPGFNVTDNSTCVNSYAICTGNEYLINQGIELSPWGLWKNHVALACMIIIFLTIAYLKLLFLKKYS
SLCO1B1: Solute carrier organic anion transporter family member 1B1 (SLCO1B1, Homo sapiens, UniProt Q9Y6L6)
Chain of UniProt Q9Y6L6 (whole entry, looked up): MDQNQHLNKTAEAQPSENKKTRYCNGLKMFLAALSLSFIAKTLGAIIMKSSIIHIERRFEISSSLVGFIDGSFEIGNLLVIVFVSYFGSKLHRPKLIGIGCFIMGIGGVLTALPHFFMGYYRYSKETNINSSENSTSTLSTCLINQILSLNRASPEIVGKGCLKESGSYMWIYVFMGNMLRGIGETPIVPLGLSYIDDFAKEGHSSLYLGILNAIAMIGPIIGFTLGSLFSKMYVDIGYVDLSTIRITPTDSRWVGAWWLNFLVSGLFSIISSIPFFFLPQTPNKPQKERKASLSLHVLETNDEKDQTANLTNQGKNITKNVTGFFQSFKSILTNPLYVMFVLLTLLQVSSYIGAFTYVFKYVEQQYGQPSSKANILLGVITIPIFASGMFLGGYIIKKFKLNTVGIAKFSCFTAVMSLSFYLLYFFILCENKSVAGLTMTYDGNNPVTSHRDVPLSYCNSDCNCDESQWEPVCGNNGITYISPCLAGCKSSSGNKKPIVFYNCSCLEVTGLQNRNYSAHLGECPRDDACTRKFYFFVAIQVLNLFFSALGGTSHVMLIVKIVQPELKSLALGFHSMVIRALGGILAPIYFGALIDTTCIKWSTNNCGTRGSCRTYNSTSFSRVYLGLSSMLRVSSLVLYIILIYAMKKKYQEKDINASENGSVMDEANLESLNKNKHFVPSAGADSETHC
ABCB1: ATP-dependent translocase ABCB1 (ABCB1, Homo sapiens, UniProt P08183)
Chain of UniProt P08183 (whole entry, looked up): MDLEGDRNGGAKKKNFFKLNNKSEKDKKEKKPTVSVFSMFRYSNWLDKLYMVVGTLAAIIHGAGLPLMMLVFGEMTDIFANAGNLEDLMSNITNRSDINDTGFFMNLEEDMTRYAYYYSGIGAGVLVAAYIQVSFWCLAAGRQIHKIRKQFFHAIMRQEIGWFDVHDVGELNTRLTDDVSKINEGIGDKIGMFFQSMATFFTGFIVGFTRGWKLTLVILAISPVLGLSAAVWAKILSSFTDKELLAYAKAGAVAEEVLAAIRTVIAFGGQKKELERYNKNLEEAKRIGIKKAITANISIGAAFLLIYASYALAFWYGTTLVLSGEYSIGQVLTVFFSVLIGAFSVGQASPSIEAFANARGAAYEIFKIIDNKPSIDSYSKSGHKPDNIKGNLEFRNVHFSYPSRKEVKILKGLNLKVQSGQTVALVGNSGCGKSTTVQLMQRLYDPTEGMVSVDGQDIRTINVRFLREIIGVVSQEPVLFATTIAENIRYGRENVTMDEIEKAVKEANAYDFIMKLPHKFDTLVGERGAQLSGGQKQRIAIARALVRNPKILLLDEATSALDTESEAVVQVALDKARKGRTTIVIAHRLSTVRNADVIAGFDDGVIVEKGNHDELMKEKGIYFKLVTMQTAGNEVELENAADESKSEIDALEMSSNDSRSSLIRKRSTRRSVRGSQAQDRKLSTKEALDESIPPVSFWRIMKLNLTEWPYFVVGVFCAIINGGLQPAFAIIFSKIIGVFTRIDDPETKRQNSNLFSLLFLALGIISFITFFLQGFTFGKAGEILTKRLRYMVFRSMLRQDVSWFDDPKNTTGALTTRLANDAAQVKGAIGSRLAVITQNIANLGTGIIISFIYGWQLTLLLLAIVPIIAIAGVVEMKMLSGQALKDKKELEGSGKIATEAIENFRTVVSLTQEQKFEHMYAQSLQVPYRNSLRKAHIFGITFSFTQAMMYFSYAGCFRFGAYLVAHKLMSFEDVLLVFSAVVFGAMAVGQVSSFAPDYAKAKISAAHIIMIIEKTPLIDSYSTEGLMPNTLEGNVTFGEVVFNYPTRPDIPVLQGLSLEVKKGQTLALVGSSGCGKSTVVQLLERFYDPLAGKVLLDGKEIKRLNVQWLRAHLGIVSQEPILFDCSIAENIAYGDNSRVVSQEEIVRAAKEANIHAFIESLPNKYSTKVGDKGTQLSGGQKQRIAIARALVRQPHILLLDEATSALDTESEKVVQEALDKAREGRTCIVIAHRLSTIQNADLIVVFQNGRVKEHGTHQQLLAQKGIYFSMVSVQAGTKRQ
CYP2E1: Cytochrome P450 2E1 (CYP2E1, Homo sapiens, UniProt P05181)
Chain of UniProt P05181 (whole entry, looked up): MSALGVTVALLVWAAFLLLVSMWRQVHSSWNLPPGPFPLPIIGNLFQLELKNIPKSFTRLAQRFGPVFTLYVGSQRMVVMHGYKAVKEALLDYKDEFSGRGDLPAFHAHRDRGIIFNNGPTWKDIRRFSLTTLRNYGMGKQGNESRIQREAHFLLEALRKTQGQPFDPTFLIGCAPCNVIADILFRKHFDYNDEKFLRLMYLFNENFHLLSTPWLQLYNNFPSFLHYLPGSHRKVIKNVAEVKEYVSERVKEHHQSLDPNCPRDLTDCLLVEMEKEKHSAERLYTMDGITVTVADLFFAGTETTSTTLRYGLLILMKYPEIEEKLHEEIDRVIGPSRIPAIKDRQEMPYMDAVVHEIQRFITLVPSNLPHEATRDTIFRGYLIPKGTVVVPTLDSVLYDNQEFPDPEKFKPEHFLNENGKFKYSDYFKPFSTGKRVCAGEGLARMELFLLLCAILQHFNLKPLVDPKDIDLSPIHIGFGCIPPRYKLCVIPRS
Chain of UniProt P49888 (whole entry, looked up): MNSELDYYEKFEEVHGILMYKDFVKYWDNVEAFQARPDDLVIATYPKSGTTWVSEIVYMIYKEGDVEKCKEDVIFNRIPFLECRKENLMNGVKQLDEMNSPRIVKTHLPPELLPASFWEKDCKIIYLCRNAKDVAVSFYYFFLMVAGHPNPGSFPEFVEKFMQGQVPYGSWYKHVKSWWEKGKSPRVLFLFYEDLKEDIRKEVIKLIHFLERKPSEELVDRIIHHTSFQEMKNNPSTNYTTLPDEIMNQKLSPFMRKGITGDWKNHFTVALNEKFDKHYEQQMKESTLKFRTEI
Chain of UniProt Q96JM7 (whole entry, looked up): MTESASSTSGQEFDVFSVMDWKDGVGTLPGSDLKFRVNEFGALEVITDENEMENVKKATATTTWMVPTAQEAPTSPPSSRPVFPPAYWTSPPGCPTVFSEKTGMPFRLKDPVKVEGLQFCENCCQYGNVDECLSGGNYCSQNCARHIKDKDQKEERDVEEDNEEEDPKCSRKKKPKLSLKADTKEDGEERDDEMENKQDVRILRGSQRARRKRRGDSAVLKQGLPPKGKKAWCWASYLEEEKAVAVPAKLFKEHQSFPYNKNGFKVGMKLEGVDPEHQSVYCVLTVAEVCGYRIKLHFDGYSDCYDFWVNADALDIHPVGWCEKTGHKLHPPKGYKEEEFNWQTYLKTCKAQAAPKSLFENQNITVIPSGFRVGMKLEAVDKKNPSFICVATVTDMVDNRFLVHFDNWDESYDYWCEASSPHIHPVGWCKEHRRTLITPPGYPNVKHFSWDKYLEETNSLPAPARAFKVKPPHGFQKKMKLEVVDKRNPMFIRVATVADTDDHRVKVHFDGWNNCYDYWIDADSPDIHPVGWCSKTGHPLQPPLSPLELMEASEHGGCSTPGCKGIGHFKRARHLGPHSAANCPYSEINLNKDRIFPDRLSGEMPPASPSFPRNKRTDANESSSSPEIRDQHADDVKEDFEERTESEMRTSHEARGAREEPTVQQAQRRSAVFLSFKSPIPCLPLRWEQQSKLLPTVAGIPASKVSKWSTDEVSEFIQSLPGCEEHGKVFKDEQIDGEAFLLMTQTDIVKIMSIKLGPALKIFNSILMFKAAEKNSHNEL
Chain of UniProt P05177 (whole entry, looked up): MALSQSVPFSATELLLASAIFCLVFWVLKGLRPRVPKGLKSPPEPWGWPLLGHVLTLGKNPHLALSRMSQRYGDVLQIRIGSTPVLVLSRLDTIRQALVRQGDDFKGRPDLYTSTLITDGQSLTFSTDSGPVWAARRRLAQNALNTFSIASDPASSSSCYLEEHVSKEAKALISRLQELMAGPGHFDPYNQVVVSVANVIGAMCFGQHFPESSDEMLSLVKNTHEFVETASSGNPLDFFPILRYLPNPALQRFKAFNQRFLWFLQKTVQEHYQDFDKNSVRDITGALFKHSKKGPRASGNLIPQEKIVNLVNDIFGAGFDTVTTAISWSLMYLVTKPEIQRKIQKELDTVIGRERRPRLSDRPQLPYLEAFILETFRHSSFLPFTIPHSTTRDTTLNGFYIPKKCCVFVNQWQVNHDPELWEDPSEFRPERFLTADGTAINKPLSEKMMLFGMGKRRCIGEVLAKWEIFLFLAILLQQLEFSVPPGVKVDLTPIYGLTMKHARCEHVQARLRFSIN

Compound	target	assay	test system	conditions	how to read	measurement	result
CN1C[C@@H]2C[C@H]1CN2c1cc2c(cc1F)c(=O)c(C(=O)O)cn2C1CC1	Broad substrate specificity ATP-binding cassette transporter ABCG2	substrate	MDCK-II transduced with mouse Abcg2	10 µM, 4 h, basolateral to apical		transport	43.8 ± 10%
C[C@H]1CN(C2COC2)CCN1c1ccc(Nc2cc(-c3ccnc(N4CCn5c(cc6c5CC(C)(C)C6)C4=O)c3CO)cn(C)c2=O)nc1	human CYP2B6		human liver microsomes	1 µM, 60 min, pH 7.4, together with: PPP 20 µM, NADPH	baseline: 0 min	remaining compound	54.4 ± 4.4%
CC(C)=CCc1c(O)cc2c(c1O)C(=O)C[C@@H](c1ccc(O)cc1)O2	human CYP2B6			1 µM, pH 7.4		inhibition	< 10%
O=c1[nH]c(=O)c(Cc2cccc(C(F)(F)F)c2)c([C@H]2CC[C@H](c3ccccc3)CC2)[nH]1	SLCO1B1	uptake, inhibitor	HEK cells expressing SLCO1B1	together with: estradiol 17-beta-D-glucuronide		IC50	> 1 µM
O=C(O)[C@H]1O[C@@H](Oc2ccc([C@@H]3[C@@H](CC[C@H](O)c4ccc(F)cc4)C(=O)N3c3ccc(F)cc3)cc2)[C@H](O)[C@@H](O)[C@@H]1O	SLCO1B1	transporter uptake, inhibitor	MDCKII expressing SLCO1B1	10 min, together with: 1 µM coproporphyrin I		IC50	1.97 µM
Cn1ncnc1[C@H]1c2n[nH]c(=O)c3cc(F)cc(c23)N[C@@H]1c1ccc(F)cc1	Broad substrate specificity ATP-binding cassette transporter ABCG2		MDCK-II Bcrp1-overexpressing	1 µM, together with: Ko143 200 nM	baseline: vector control cells	intracellular accumulation	242 ± 46.9%
O=c1c(-c2ccc(O)cc2)coc2cc(O)cc(O)c12	Androgen receptor (AR, Homo sapiens, UniProt P10275, Q868H)	luciferase reporter gene, antagonist		concentration not given, heat-inactivated rat liver microsomes		antagonist activity	inactive
Cc1oc2ccccc2c1Cc1cc(I)c(OCC(=O)O)c(I)c1	KCNH2 (Homo sapiens, UniProt Q12809, S620T)	potassium current, outside-out excised patch	Xenopus oocytes	10 µM, bath application		current effect	no effect
CCCCC1=NC2(CCCC2)C(=O)N1Cc1ccc(-c2ccccc2S(=O)(=O)Nc2noc(C)c2C)c(COCC)c1	CYP3A4	enzyme induction, inducer	human			EC50	1.83 µM
CC1(C)CCC2(CC1)N[C@@H](C(=O)N[C@@H]1CC[C@@H](C(N)=O)OC1)[C@H](c1ccnc(Cl)c1F)[C@]21C(=O)Nc2cc(Cl)ccc21	ABCB1		Caco-2 monolayers	100 µM, 120 min, no inhibitor		Papp B to A	5.79 ×10⁻⁶ cm/s
C=C[C@@H]1C[C@]1(NC(=O)[C@@H]1C[C@@H]2CN1C(=O)[C@H](C(C)(C)C)NC(=O)O[C@@H]1C[C@H]1CCCCCc1nc3ccc(OC)cc3nc1O2)C(=O)NS(=O)(=O)C1CC1	SLCO1B1	uptake, substrate	HEK293 transfected	relative activity factor scaled	baseline: mock cells	Vmax	8.34 pmol/min/mg protein
Cc1cc(O[C@@H]2CCOC2)cc(C(=O)Nc2nc(C)cs2)n1	CYP panel except CYP1A2 (human)	inhibitor				IC50	> 30 µM
CC(C)=CCc1c(O)cc(O)c2c1O[C@H](c1ccc(O)cc1)CC2=O	human CYP2B6			10 µM, pH 7.4		inhibition	34.7 ± 1.7%
O=C(c1ccc(C(=O)N2CCC(N3CCCC3)CC2)c(Nc2ccccc2)c1)N1CCC(N2CCCC2)CC1	Lethal(3)malignant brain tumor-like protein 3, MBT domains (Homo sapiens, UniProt Q96JM7)	FRAP	human cells	0.1 µM		FRAP recovery half-time	3.3 s
N#C[C@H](C[C@@H]1CCCNC1=O)NC(=O)[C@H](CC1CC1)NC(=O)c1cc2cccc(Cl)c2[nH]1	CYP2E1	ISEF abundance scaling		2 µM, pH 7.4		fraction metabolised	< 1%
Cn1c(=O)c2c(ncn2C)n(C)c1=O	Cytochrome P450 1A2 (CYP1A2, Homo sapiens, UniProt P05177)		human, plasma	oral, 200 mg, day 1, alone, geometric mean		Cmax	4190 ng/mL
COc1cc2c(CCNC(C)=O)c[nH]c2cc1O	SULT1E1 (Homo sapiens, UniProt P49888)	substrate, sulfation, purified enzyme		10 µM, 10 min, pH 7.0, 37 °C		specific activity	1.65 ± 0.2 nmol/min/mg
c1ccc2ncccc2c1	CYP2E1	enzyme activity	human	100 µM, 20 min		inhibition	~50%
CC[C@H]1[C@@H](O)[C@@H]2[C@H](CC[C@]3(C)[C@@H]([C@H](C)CCNC(=O)NS(=O)(=O)c4ccc(C(C)(C)C)cc4)CC[C@@H]23)[C@@]2(C)CC[C@@H](O)C[C@@H]12	ABCB1	substrate	human, plasma	dose not given, alone		AUC(0-t) mean	373 ng·h/mL
c1ccc2cnccc2c1	CYP2E1	inhibitor	reconstituted CYP-CPR-b5 system	competitive inhibition model, together with: p-nitrophenol		Ki	0.544 ± 0.105 µM
C[C@@H]1CC[C@]2(C(=O)O[C@@H]3O[C@H](CO)[C@@H](O)[C@H](O)[C@H]3O)CC[C@]3(C)C(=CC[C@@H]4[C@@]5(C)CC[C@H](O)[C@@](C)(CO)[C@@H]5CC[C@]43C)[C@@H]2[C@]1(C)O	human CYP3A4/5	mechanism-based inhibitor, measured: 6β-hydroxytestosterone	pooled human liver microsomes	50 µM, 30 min preincubation, together with: testosterone 17.34 µM		remaining activity	79.1%

Some of these lines once more:
Compound	target	assay	test system	conditions	how to read	measurement	result
Cc1oc2ccccc2c1Cc1cc(I)c(OCC(=O)O)c(I)c1	KCNH2 (Homo sapiens, UniProt Q12809, S620T)	potassium current, outside-out excised patch	Xenopus oocytes	10 µM, bath application		current effect	no effect
CC1(C)CCC2(CC1)N[C@@H](C(=O)N[C@@H]1CC[C@@H](C(N)=O)OC1)[C@H](c1ccnc(Cl)c1F)[C@]21C(=O)Nc2cc(Cl)ccc21	ABCB1		Caco-2 monolayers	100 µM, 120 min, no inhibitor		Papp B to A	5.79 ×10⁻⁶ cm/s
